Experimental data gathered from unrelated publications.
± gives the spread as reported.
Organism: Plasmodium falciparum

Compound = Fc1cccc(COc2ccc(Nc3ncnc4ccc(-c5cccc(N6CCOCC6)c5)cc34)cc2Cl)c1; observed = parasite growth; technique = SYBR Green fluorescence; strain = C235 (TM91C235), drug-resistant; EC50 = 370 nM
Compound = CCn1cc(-c2nc(C)no2)c(=O)c2cc(F)c(N3CCC(Cc4ccccc4)CC3)cc21; observed = parasite growth; technique = [3H]hypoxanthine incorporation; strain = NF54; time = 72 h; EC50 = 6 nM
Compound = Cc1cc(Nc2ccc(C)c(Cl)c2)n2ncnc2n1; observed = parasite growth; technique = SYBR Green; strain = 3D7 wild type; time = 72 h; EC50 = 1320 ± 510 nM
Compound = O=C(C[C@H]1NCCC[C@@H]1O)Cn1cnc2ccccc2c1=O; observed = cell growth; technique = SYBR Green I; strain = 3D7; time = 48 h; notes = asexual blood stage; EC50 = 0.3 nM
Compound = CC[C@H](C)[C@H](NC(=O)[C@H]([C@@H](C)CC)N(C)C(C)=O)C(=O)N[C@H](C(=O)N[C@@H](CC(C)C)C(=O)[C@@]1(C)CO1)[C@@H](C)O; strain = Dd2 β5 S27F resistant; EC50 = 11 ± 1.5 nM
Compound = CCn1cc(-c2nc(C)no2)c(=O)c2cc(F)c(N3CCC(C)CC3)cc21; observed = parasite growth; technique = [3H]hypoxanthine incorporation; strain = K1; time = 72 h; EC50 = 13 nM
Compound = CN(CC(=O)Nc1ccc(N(C)c2ccc(Cl)cc2)cc1)c1ccccc1N1CCCC1=O; observed = parasite growth; technique = LDH; strain = 3D7 population D, CSC1 L954F; time = 72 h; EC50 = 263 nM
Compound = COc1ccc(-c2c(C)nn3c(N)c(C#N)cnc23)cc1OC; observed = parasite growth; technique = [3H]-hypoxanthine incorporation; strain = Dd2, MMV390048-resistant S743T mutant; time = 72 h; EC50 = 544 nM
Compound = O=C1C(O)=C([C@H]2CC[C@H](c3ccc(Cl)cc3)CC2)C(=O)c2ccccc21; observed = parasite growth; technique = SYBR Green I; strain = TM90-C2B, resistant isolate; time = 72 h; EC50 = > 2500 nM
Compound = CCCCOc1ccccc1C(=O)NCc1csc(-c2ccccc2)n1; observed = parasite growth; technique = SYBR Green; strain = 3D7 DHODH E182D; time = 72 h; EC50 = 619 ± 110 nM
Compound = CCOCC(=O)N1CCC[C@H](C(=O)NCc2nc(-c3ccc(C#N)cc3)cs2)C1; strain = Dd2 β5 S27F resistant; EC50 = 19000 ± 7200 nM
Compound = O=C(CSc1nnc(O)n1Cc1ccccc1)Nc1ccccc1-c1ccccc1; observed = parasite growth; technique = SYBR Green; strain = 3D7 wild type; time = 72 h; EC50 = 788 ± 99 nM
Compound = CCn1cc(C2CC2)c2c(CN3CCC(F)(F)CC3(C)C)n(C)nc2c1=O; observed = parasite growth; strain = 3D7; EC50 = 31.6 nM
Compound = CCOC(=O)c1cn(CC)c2cc(N3CCC(Cc4ccccc4)CC3)c(F)cc2c1=O; observed = parasite growth; technique = [3H]hypoxanthine incorporation; strain = Dd2; time = 72 h; EC50 = 14 nM
Compound = CN1CCCN(S(=O)(=O)c2ccc(-c3ccc4ncnc(Nc5ccc(OCc6cccc(F)c6)c(Cl)c5)c4c3)cc2)CC1; observed = parasite growth; technique = SYBR Green fluorescence; strain = C235 (TM91C235), drug-resistant; EC50 = 50 nM
Compound = CC(C)C[C@@H](C=O)NC(=O)[C@H](CC(C)C)NC(=O)[C@H](CC(C)C)NC(=O)OCc1ccccc1; strain = Dd2 β3 R190S resistant; EC50 = 130 ± 17 nM
Compound = O=C(Nc1cccc(CN2CCN(C(=O)c3cccc(Cl)c3)CC2)c1)c1ccco1; observed = parasite growth; technique = SYBR Green; strain = 3D7 DHODH E182D; time = 72 h; EC50 = 7480 ± 680 nM
Compound = Cc1ccc(N(c2ccc(NC(=O)CN(C)c3ccccc3N3CCCC3=O)cn2)C(C)C)cc1F; observed = parasite growth; technique = LDH; strain = 3D7 population E, L562R mutant; time = 72 h; EC50 = 6 nM
Compound = Cc1cc(Nc2ccc(S(F)(F)(F)(F)F)cc2)n2nc(C(C)(F)F)nc2n1; strain = Dd2 β5 S27F CRISPR-edited; EC50 = 5.9 ± 0.62 nM
Compound = CC(Oc1cccc(Cl)c1)C(=O)N1CCc2ccccc21 (centres unmarked); observed = parasite growth; technique = SYBR Green; strain = 3D7 wild type; time = 72 h; EC50 = 2420 ± 910 nM
Compound = Cc1cc(N[C@H]2CCc3ccc(Cl)cc3C2)n2nc(C(C)(F)F)nc2n1; observed = parasite growth; strain = TM90C2B multidrug-resistant; EC50 = 1.3 nM
Compound = Cc1ccc(N(C)c2ccc(NC(=O)CN(C)c3cccnc3N3CCCC3=O)cc2)cc1; observed = parasite growth; technique = LDH; strain = 3D7 population A; time = 72 h; EC50 = 274 nM
Compound = C=CCn1c(SCC(=O)Nc2cc(C)ccc2OC)nc2sc(C)cc2c1=O; observed = parasite growth; technique = SYBR Green; strain = 3D7 wild type; time = 72 h; EC50 = 320 ± 57 nM
Compound = Cc1ccc(N(C)c2ccc(NC(=O)CN(C)c3ccccc3N3CCCC3=O)cc2)cc1; observed = parasite growth; technique = LDH; strain = 3D7 population A; time = 72 h; EC50 = 78 nM
Compound = CC(C)C[C@H](NC(=O)[C@H](Cc1c[nH]c2ccccc12)NC(=O)CN1CCOCC1)C(=O)N[C@H](/C=C/S(C)(=O)=O)Cc1c[nH]c2ccccc12; strain = Dd2 β3 R190S resistant; EC50 = 23 ± 2.9 nM
Compound = CC(C)N(c1ccc(Cl)c(F)c1)c1ccc(NC(=O)CN(C)c2ccccc2N2CCCC2=O)cn1; observed = parasite growth; technique = LDH; strain = 3D7 population A; time = 72 h; EC50 = 11 nM
Compound = Cc1c(C2(c3ccc(C(F)(F)F)nc3)CC2)c[nH]c1C(=O)NC(C)c1nc[nH]n1 (centres unmarked); technique = SYBR Green; strain = Uganda field isolates; medium = Albumax medium; time = 72 h; notes = unbound, ex vivo patient isolates; EC50 = 3.1 nM
Compound = O=C(O)[C@@H]1Cc2c([nH]c3ccccc23)[C@@H](c2ccc(Cl)cc2Cl)N1; observed = parasite growth; strain = AM1, HAD1 loss-of-function; time = 72 h; EC50 = 1300 nM
Compound = Cc1nc(Nc2ccc(S(F)(F)(F)(F)F)cc2)c2c(C)noc2n1; observed = parasite growth; technique = SYBR Green; strain = 3D7 wild type; time = 72 h; EC50 = 62.9 ± 8.4 nM
Compound = Cc1nnc(-c2ccc3ccn(CC(=O)Nc4ccccc4Cl)c3c2)o1; observed = parasite viability; technique = SYBR Green flow cytometry; strain = Dd2 multidrug-resistant; time = 48 h; notes = asexual blood stage; EC50 = 320 nM
Compound = COc1ccccc1N1CCN(c2cccc(F)c2C#N)CC1; observed = parasite growth; technique = SYBR Green; strain = 3D7 wild type; time = 72 h; EC50 = 4750 ± 2700 nM
Compound = CCN1CCN(Cc2ccc(Nc3nc4ccc(Oc5ccnc(NC(=O)C6CCN(C)CC6)c5)cc4n3C)cc2C(F)(F)F)CC1; strain = Dd2; time = 72 h; EC50 = 100 ± 10 nM
